Experimental data collected from several papers.
Each line is one published result; not all experiments were run side by side. ± marks the error that the study gave.
Technique: steady-state kinetics
B1: IYD (Homo sapiens, UniProt Q6PHW0); chain MGEPRTRAEARPWVDEDLKDSSDLHQAEEDADEWQESEENVEHIPFSHNHYPEKEMVKRSQEFYELLNKRRSVRFISNEQVPMEVIDNVIRTAGTAPSGAHTEPWTFVVVKDPDVKHKIRKIIEEEEEINYMKRMGHRWVTDLKKLRTNWIKEYLDTAPILILIFKQVHGFAANGKKKVHYYNEISVSIACGILLAALQNAGLVTVTTTPLNCGPRLRVLLGRPAHEKLLMLLPVGYPSKEATVPDLKRKPLDQIMVTV
B2: FNO G29W (Thermobifida fusca, UniProt Q47RA9); chain MIMIMASKSSPHDLPDVSGLSIAVLGGTWDQGRGLARRFAMAGHEVILGSRSAERAQAVAAELGEGLPVRGMDNAGAAEAGDVVIVAVPWDGHRALLESLKDVLAGKIVVDCVNPLGFDKRGAYALPVEEGSAAEQAAAILPDSRVVAAFHHVSAVLLLDPEVEKVDLDVLVLGDDREATDVVRALAARIPGVRGVYGGRLRNAHQVEAFTANLISINRRYKAHAGIRITDI
B3: enzyme (Bacillus pumilus, UniProt A8FFI9); chain EARSIAWSVDEFFKNREGTFVIQEVKEKSPWVYNKKRAKERFAPQSTFKVANALIGLQTGAVRDEYDIKYWDGVKREIDNWNRDHTLGSGMRDSVVWYYQAMARDIGEERMNHWVKAIHYGNKDISGGIDQFWLSSTLRISPIEQVRFLKQLYEETLPFDLKNMRTVKRMMVQEEEKHATLYGKTGSGSDIGWYVGFIKHEHKTYILATNIKGTGIEAKDITYRILKKYHLMEASV
B4: cyc1 F95H (Streptomyces coelicolor, UniProt Q9K499); chain MHAFPHGTTATPTAIAVPPSLRLPVIEAAFPRQLHPYWPKLQETTRTWLLEKRLMPADKVEEYADGLCYTDLMAGYYLGAPDEVLQAIADYSAWHFVWDDRHDRDIVHGRAGAWRRLRGLLHTALDSPGDHLHHEDTLVAGFADSVRRLYAFLPATWNARFARHFHTVIEAYDREFHNRTRGIVPGVEEYLELRRLTFAHWIWTDLLEPSSGCELPDAVRKHPAYRRAALLSQEFAAWYNDLCSLPKEIAGDEVHNLGISLITHHSLTLEEAIGEVRRRVEECITEFLAVERDALRFADELADGTVRGKELSGAVRANVGNMRNWFSSVYWFHHESGRYMVDSWDDRSTPPYVNNEAAGEK
B5: HEM1 (Saccharomyces cerevisiae, UniProt P09950); chain AAAAANHSTQESGFDYEGLIDSELQKKRLDKSYRYFNNINRLAKEFPLAHRQREADKVTVWCSNDYLALSKHPEVLDAMHKTIDKYGCGAGGTRNIAGHNIPTLNLEAELATLHKKEGALVFSSCYVANDAVLSLLGQKMKDLVIFSDELNHASMIVGIKHANVKKHIFKHNDLNELEQLLQSYPKSVPKLIAFESVYSMAGSVADIEKICDLADKYGALTFLDEVHAVGLYGPHGAGVAEHCDFESHRASGIATPKTNDKGGAKTVMDRVDMITGTLGKSFGSVGGYVAASRKLIDWFRSFAPGFIFTTTLPPSVMAGATAAIRYQRCHIDLRTSQQKHTMYVKKAFHELGIPVIPNPSHIVPVLIGNADLAKQASDILINKHQIYVQAINFPTVARGTERLRITPTPGHTNDLSDILINAVDDVFNELQLPRVRDWESQGGLLGVGESGFVEESNLWTSSQLSLTNDDLNPNVRDPIVKQLEVSSGIKQ
B6: protein Y93A (Thermus thermophilus, UniProt Q5SKR5); chain MSAPKPFVIGIAGGTASGKTTLAQALARTLGERVALLPMDHYYKDLGHLPLEERLRVNYDHPDAFDLALYLEHAQALLRGLPVEMPVYDFRAATRSPRRTPVRPAPVVILEGILVLYPKELRDLMDLKVFVDADADERFIRRLKRDVLERGRSLEGVVAQYLEQVKPMHLHFVEPTKRYADVIVPRGGQNPVALEMLAAKALARLARMGAA
B7: ERAP1 K528R (Homo sapiens, UniProt Q9NZ08); chain MVFLPLKWSLATMSFLLSSLLALLTVSTPSWCQSTEASPKRSDGTPFPWNKIRLPEYVIPVHYDLLIHANLTTLTFWGTTKVEITASQPTSTIILHSHHLQISRATLRKGAGERLSEEPLQVLEHPRQEQIALLAPEPLLVGLPYTVVIHYAGNLSETFHGFYKSTYRTKEGELRILASTQFEPTAARMAFPCFDEPAFKASFSIKIRREPRHLAISNMPLVKSVTVAEGLIEDHFDVTVKMSTYLVAFIISDFESVSKITKSGVKVSVYAVPDKINQADYALDAAVTLLEFYEDYFSIPYPLPKQDLAAIPDFQSGAMENWGLTTYRESALLFDAEKSSASSKLGITMTVAHELAHQWFGNLVTMEWWNDLWLNEGFAKFMEFVSVSVTHPELKVGDYFFGKCFDAMEVDALNSSHPVSTPVENPAQIREMFDDVSYDKGACILNMLREYLSADAFKSGIVQYLQKHSYKNTKNEDLWDSMASICPTDGVKGMDGFCSRSQHSSSSSHWHQEGVDVKTMMNTWTLQRGFPLITITVRGRNVHMKQEHYMKGSDGAPDTGYLWHVPLTFITSKSDMVHRFLLKTKTDVLILPEEVEWIKFNVGMNGYYIVHYEDDGWDSLTGLLKGTHTAVSSNDRASLINNAFQLVSIGKLSIEKALDLSLYLKHETEIMPVFQGLNELIPMYKLMEKRDMNEVETQFKAFLIRLLRDLIDKQTWTDEGSVSERMLRSQLLLLACVHNYQPCVQRAEGYFRKWKESNGNLSLPVDVTLAVFAVGAQSTEGWDFLYSKYQFSLSSTEKSQIEFALCRTQNKEKLQWLLDESFKGDKIKTQEFPQILTLIGRNPVGYPLAWQFLRKNWNKLVQKFELGSSSIAHMVMGTTNQFSTRTRLEEVKGFFSSLKENGSQLRCVQQTIETIEENIGWMDKNFDKIRVWLQSEKLEHDPEADATG
B8: hflX K210A/N207A (Escherichia coli, UniProt P25519); chain MFDRYDAGEQAVLVHIYFTQDKDMEDLQEFESLVSSAGVEALQVITGSRKAPHPKYFVGEGKAVEIAEAVKATGASVVLFDHALSPAQERNLERLCECRVIDRTGLILDIFAQRARTHEGKLQVELAQLRHLATRLVRGWTHLERQKGGIGLRGPGETQLETDRRLLRNRIVQIQSRLERVEKQREQGRQSRIKADVPTVSLVGYTAAGASTLFNRITEARVYAADQLFATLDPTLRRIDVADVGETVLADTVGFIRHLPHDLVAAFKATLQETRQATLLLHVIDAADVRVQENIEAVNTVLEEIDAHEIPTLLVMNKIDMLEDFEPRIDRDEENKPNRVWLSAQTGAGIPQLFQALTERLSGEVAQHTLRLPPQEGRLRSRFYQLQAIEKEWMEEDGSVSLQVRMPIVDWRRLCKQEPALIDYLI
B9: POLK W214Y/W392H/Y50W (Homo sapiens, UniProt Q9UBT6); chain MGLNDNKAGMEGLDKEKINKIIMEATKGSRFWGNELKKEKQVNQRIENMMQQKAQITSQQLRKAQLQVDRFAMELEQSRNLSNTIVHIDMDAFYAAVEMRDNPELKDKPIAVGSMSMLSTSNYHARRFGVRAAMPGFIAKRLCPQLIIVPPNFDKYRAVSKEVKEILADYDPNFMAMSLDEAYLNITKHLEERQNYPEDKRRYFIKMGSSVENDNPGKEVNKLSEHERSISPLLFEESPSDVQPPGDPFQVNFEEQNNPQILQNSVVFGTSAQEVVKEIRFRIEQKTTLTASAGIAPNTMLAKVCSDKNKPNGQYQILPNRQAVMDFIKDLPIRKVSGIGKVTEKMLKALGIITCTELYQQRALLSLLFSETSHHYFLHISLGLGSTHLTRDGERKSMSVERTFSEINKAEEQYSLCQELCSELAQDLQKERLKGRTVTIKLKNVNFEVKTRASTVSSVVSTAEEIFAIAKELLKTEIDADFPHPLRLRLMGVRISSFPNEEDRKHQQ
B10: TcA (Trypanosoma cruzi, UniProt Q4DRC4); chain MFIRLFAREEEGEKEGKICHMPREYEFAEKILFTEEEIRTRIKEVAKRIADDYKGKGLRPYVNPLVLISVLKGSFMFTADLCRALCDFNVPVRMEFICVSSYGEGLTSSGQVRMLLDTRHSIEGHHVLIVEDIVDTALTLNYLYHMYFTRRPASLKTVVLLDKREGRRVPFSADYVVANIPNAFVIGYGLDYDDTYRELRDIVVLRPEVYAEREAARQKKQRAIGSADTDRDAKREFHSKY
B11: protein G95D/P94L (Streptomyces coelicolor, UniProt P16544); chain MATQDSEVALVTGATSGIGLEIARRLGKEGLRVFVCARGEEGLRTTLKELREAGVEADGRTCDVRSVPEIEALVAAVVERYGPVDVLVNNAGRLDGGATAELADELWLDVVETNLTGVFRVTKQVLKAGGMLERGTGRIVNIASTGGKQGVVHAAPYSASKHGVVGFTKALGLELARTGITVNAVCPGFVETPMAASVREHYSDIWEVSTEEAFDRITARVPIGRYVQPSEVAEMVAYLIGPGAAAVTAQALNVCGGLGNY
Sequence of UniProt P14780 (whole entry, looked up): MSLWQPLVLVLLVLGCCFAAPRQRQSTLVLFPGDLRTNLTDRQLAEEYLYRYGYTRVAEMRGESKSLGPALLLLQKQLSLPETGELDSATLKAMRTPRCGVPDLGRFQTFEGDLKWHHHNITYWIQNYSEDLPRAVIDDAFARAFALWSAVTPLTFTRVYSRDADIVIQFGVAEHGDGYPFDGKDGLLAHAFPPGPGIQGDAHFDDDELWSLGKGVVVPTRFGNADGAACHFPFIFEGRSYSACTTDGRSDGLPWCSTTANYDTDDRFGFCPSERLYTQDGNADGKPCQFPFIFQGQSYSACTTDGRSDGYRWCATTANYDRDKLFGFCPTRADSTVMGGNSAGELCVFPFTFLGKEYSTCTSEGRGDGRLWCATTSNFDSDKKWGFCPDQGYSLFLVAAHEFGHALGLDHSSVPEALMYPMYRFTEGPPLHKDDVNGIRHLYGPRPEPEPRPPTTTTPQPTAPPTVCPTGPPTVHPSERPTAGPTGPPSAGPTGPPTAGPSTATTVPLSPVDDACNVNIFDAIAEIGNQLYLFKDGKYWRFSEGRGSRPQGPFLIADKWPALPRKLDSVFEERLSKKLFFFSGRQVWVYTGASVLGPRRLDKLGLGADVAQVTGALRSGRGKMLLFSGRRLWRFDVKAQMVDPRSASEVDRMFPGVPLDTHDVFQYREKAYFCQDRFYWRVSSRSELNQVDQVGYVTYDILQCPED
Sequence of UniProt O31663 (whole entry, looked up): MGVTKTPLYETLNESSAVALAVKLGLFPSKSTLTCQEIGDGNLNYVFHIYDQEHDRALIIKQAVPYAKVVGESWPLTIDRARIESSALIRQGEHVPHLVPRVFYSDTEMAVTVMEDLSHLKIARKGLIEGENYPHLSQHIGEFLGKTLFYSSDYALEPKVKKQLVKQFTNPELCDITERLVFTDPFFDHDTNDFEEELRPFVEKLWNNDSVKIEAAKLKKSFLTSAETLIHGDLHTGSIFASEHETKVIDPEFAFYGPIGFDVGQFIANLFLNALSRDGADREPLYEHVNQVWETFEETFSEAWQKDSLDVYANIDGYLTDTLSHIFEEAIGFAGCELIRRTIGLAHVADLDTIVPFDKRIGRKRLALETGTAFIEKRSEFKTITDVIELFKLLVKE
Sequence of UniProt P19337 (whole entry, looked up): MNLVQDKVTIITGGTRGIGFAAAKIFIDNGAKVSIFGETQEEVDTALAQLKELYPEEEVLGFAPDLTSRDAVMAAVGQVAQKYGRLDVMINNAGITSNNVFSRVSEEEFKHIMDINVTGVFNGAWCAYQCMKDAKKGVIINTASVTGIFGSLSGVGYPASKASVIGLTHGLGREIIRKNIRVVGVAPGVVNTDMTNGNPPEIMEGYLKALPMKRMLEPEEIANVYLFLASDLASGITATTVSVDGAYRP

Substance	substrate	setting	kcat/Km [M⁻¹ s⁻¹]
B1 (IYD)	COc1cc(C[C@H](N)C(=O)O)cc(I)c1O	pH 7.4, 25 °C, added: sodium dithionite 0.5%	9000 ± 3000
BaiA2 (Clostridium scindens, UniProt P19337)	NC(=O)c1ccc[n+]([C@@H]2O[C@H](COP(=O)(O)OP(=O)(O)OC[C@H]3O[C@@H](n4cnc5c(N)ncnc54)[C@H](O)[C@@H]3O)[C@@H](O)[C@H]2O)c1	pH 8.7, 37 °C, cofactor from expression host, cofactor varied	13200
B2 (FNO G29W)	NC(=O)c1ccc[n+](Cc2ccccc2)c1	pH 8, 25 °C, added: F420H2 40 µM	97 ± 15
MMP9 (Homo sapiens, UniProt P14780)	CC(=O)NCC(=O)N1CCC[C@H]1C(=O)N[C@@H](CC(C)C)C(=O)NCC(=O)N[C@@H](CC(C)C)C(=O)N[C@@H](CO)C(=O)N[C@@H](CC(C)C)C(=O)NCC(=O)N[C@@H](CCCCN)C(N)=O		50000
enzyme (Tetranychus urticae, UniProt T1KUK4)	O=c1ccn([C@@H]2O[C@H](CO[P@@](=O)(O)O[P@@](=O)(O)O[C@H]3O[C@H](CO)[C@@H](O)[C@H](O)[C@H]3O)[C@@H](O)[C@H]2O)c(=O)[nH]1	pH 7.8	1900 ± 700
enzyme (Trypanosoma brucei, UniProt Q8WQX5)	O=c1ccn([C@@H]2O[C@H](COP(=O)(O)OP(=O)(O)OP(=O)(O)O)[C@@H](O)[C@H]2O)c(=O)[nH]1	pH 8, 27 °C, apparent	60000
B3 (enzyme)	C[C@@H](O)[C@H]1C(=O)N2C(C(=O)O)=C(S[C@@H]3CN[C@H](CNS(N)(=O)=O)C3)[C@H](C)[C@H]12	pH 7	3400 ± 900
protein (Stereum hirsutum, UniProt P9WEW1)	CC(C)=CCC/C(C)=C/CC/C(C)=C/CO[P@@](=O)(O)OP(=O)(O)O	pH 8, NaCl 200 mM, added: FPP 1–100 µM	1950 ± 150
B4 (cyc1 F95H)	CC(C)=CCC/C(C)=C/CC/C(C)=C/CO[P@@](=O)(O)OP(=O)(O)O	pH 6.5, 30 °C, added: MgCl2 10 mM	2600 ± 100
alanine aminopeptidase (Neisseria meningitidis, UniProt Q9JYV4)	NC(=O)Cc1cc(=O)oc2cc(NC(=O)[C@@H](N)C3Cc4ccccc4C3)ccc12	pH 7.5, 37 °C	35000 ± 2000
B5 (HEM1)	CC(C)(COP(=O)(O)OP(=O)(O)OC[C@H]1O[C@@H](n2cnc3c(N)ncnc32)[C@H](O)[C@@H]1OP(=O)(O)O)[C@@H](O)C(=O)NCCC(=O)NCCSC(=O)CCC(=O)O	pH 7.4, 30 °C	1850
B6 (protein Y93A)	Nc1ccn([C@@H]2O[C@H](CO)[C@@H](O)[C@H]2O)c(=O)n1	pH 7.2, 25 °C, KCl 100 mM, added: ATP 100–200 µM	12000
mtnK (Bacillus subtilis, UniProt O31663)	Nc1ncnc2c1ncn2[C@@H]1O[C@H](COP(=O)(O)OP(=O)(O)OP(=O)(O)O)[C@@H](O)[C@H]1O	pH 7.8, 30 °C, added: 5-methylthioribose	21000
B7 (ERAP1 K528R)	CC(C)C[C@H](NC(=O)CNC(=O)[C@H](CCC(=O)O)NC(=O)[C@H](Cc1ccccc1)NC(=O)[C@H](CCCNC(=N)N)NC(=O)[C@H](CCCCN)NC(=O)[C@@H](N)Cc1ccc(O)cc1)C(=O)N[C@H](C(=O)N[C@@H](CCC(N)=O)C(=O)N[C@@H](CCCNC(=N)N)C(=O)O)[C@@H](C)O	25 °C	5500 ± 18000
B8 (hflX K210A/N207A)	Nc1nc2c(ncn2[C@@H]2O[C@H](COP(=O)(O)OP(=O)(O)OP(=O)(O)O)[C@@H](O)[C@H]2O)c(=O)[nH]1	pH 8, 37 °C, added: MgCl2 5 mM, NaCl 200 mM	3.67
B9 (POLK W214Y/W392H/Y50W)	Nc1ccn([C@H]2C[C@H](O)[C@@H](COP(=O)(O)OP(=O)(O)OP(=O)(O)O)O2)c(=O)n1	pH 7.5, 23 °C, MgCl2 5 mM, added: G template	37000
B10 (TcA)	Nc1nc2nc[nH]c2c(=O)[nH]1	pH 8.3, 37 °C, apparent, added: PRPP 1 mM, MgCl2 12 mM	1.7e+06 ± 100000
B11 (protein G95D/P94L)	O[C@H]1CCCc2ccccc21	pH 7.4, phosphate 400 mM, NADPH 250 µM printed, added: NADP+, reverse reaction	32 ± 1

Some of these lines once more:
Substance	substrate	setting	kcat/Km [M⁻¹ s⁻¹]
B7 (ERAP1 K528R)	CC(C)C[C@H](NC(=O)CNC(=O)[C@H](CCC(=O)O)NC(=O)[C@H](Cc1ccccc1)NC(=O)[C@H](CCCNC(=N)N)NC(=O)[C@H](CCCCN)NC(=O)[C@@H](N)Cc1ccc(O)cc1)C(=O)N[C@H](C(=O)N[C@@H](CCC(N)=O)C(=O)N[C@@H](CCCNC(=N)N)C(=O)O)[C@@H](C)O	25 °C	5500 ± 18000
B8 (hflX K210A/N207A)	Nc1nc2c(ncn2[C@@H]2O[C@H](COP(=O)(O)OP(=O)(O)OP(=O)(O)O)[C@@H](O)[C@H]2O)c(=O)[nH]1	pH 8, 37 °C, added: MgCl2 5 mM, NaCl 200 mM	3.67
